Measurements pooled from the literature.
Numbered parts are unrelated; each lists some results of a single study. Substitutions count along the parent as printed.

Block 1 — method: protein binding microarray; molecule type: double-stranded DNA, one strand shown; matrix: in vitro; concentration: not given; relative to: not given; reading: higher = stronger binding; quantity: E-score
Target: Histone acetyltransferase KAT6A, both winged helices, GST fusion (KAT6A, Homo sapiens, UniProt Q92794, residues 1-181)
Notes: 8-mer, flanks averaged, mean of 2 arrays, mostly near background
Residues (chain): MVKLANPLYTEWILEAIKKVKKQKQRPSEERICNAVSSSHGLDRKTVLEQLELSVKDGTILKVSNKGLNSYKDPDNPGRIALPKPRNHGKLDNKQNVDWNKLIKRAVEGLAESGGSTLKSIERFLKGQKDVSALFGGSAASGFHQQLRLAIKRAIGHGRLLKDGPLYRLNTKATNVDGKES
AAGAATGC: -0.101
CCACCCGA: -0.0478
AATCATGG: -0.204
AATCTGGC: -0.0881
ACCGAATG: 0.0584
CTAGAAAG: 0.03

Block 2 — target: CCNA2, cyclin fold, Cln2 fusion (human); method: yeast growth competition, sequencing; matrix: yeast; notes: strong parent motif; relative to: not given; reading: higher = stronger binding; quantity: normalised enrichment score
Starting sequence: CDKN1B docking peptide (human); PSACRNLFGPVDH
A3M: 2.13
P1L: 3.3
A3D: -0.0785
H13G: 4.33

Block 3 — method: RNA Bind-n-Seq; molecule type: RNA; matrix: in vitro; concentration: not given; relative to: input RNA pool; reading: higher = stronger binding; quantity: bound/input enrichment
Target: RING finger protein unkempt homolog, zinc fingers 1-6, GST-SBP tag (UNK, Homo sapiens, UniProt Q9C0B0, residues 30-357)
Notes: RNA with constant flanks, human and mouse sites, ends assumed
Construct (chain): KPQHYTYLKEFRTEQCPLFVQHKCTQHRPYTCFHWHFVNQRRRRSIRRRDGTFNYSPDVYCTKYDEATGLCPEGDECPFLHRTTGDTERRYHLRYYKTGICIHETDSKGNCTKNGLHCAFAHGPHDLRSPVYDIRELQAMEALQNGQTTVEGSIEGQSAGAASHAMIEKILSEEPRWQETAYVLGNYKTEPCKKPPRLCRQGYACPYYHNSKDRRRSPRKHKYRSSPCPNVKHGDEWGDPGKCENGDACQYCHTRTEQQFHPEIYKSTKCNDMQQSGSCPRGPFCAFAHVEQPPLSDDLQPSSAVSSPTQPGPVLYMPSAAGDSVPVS
GGGAGUUCUACAGUCCGACGAUCCAGCUGUGUCUUCUAAAGUGGAUCAGUGAGAGAGGCUCCUGGACCUGCGAGCUGUGCUGUUAUAGAUACCACGUCACAGCCAUUAAAAUGAAGCAACCUUGCCAGUGGCAGAGCAUUUCUCAACAGAGGAUUGAGCAUCA: 0.147 ratio
GGGAGUUCUACAGUCCGACGAUCCCGGUUUGUAAAACAUUAAGAGAAAAAAUAGGAUAUUUUAUACAUGUGGUGAGUGGAGAACAGGGUAACUUUAAAUGAAAGUGUAAGGCAAAUUGUAAGCACCACAAGAUAUAUCAGAUUCAACAGAGGAUUGAGCAUCA: 0.951 ratio
GGGAGUUCUACAGUCCGACGAUCCACACACUCUUCUGCGGGACCCUCAUCUUGCAGGCCCGGGCCUAUGUGGGACCGCACGUCCUGGCAGUGGUGACCCGCACAGGGUUCUGCACGGCAAAAGGGGGCCUGGUGAGCUCCAUCCAACAGAGGAUUGAGCAUCA: 0.124 ratio
GGGAGUUCUACAGUCCGACGAUCCCCCUUCCCCGGGGCUUGAGACUUUGGGGGUGCAGACAGGGACUUUCCUCUGCCAGCAGCACAGAAAAGGAAGCUGCAGAAAGGCUCGAGGAAGGGGAGUUCCCCGUUCGAUCUUGGGGGCAACAGAGGAUUGAGCAUCA: 0.0626 ratio

Other studies, line by line
PhoQ, residues 284 288 289 292 302 303 SLSLLA  fold induction (PhoP, residues 12 14 15 18 19 SPWRL (Escherichia coli, UniProt P23836); Sort-seq, refers to: YFP reporter; E. coli; PhoQ-PhoP variant library, with: 10 µM Mg2+; relative to: high Mg2+ state, higher = stronger signaling): 10.9

Excerpt of the above (block 1):
CTAGAAAG: 0.03
